Experimental data collected from several papers.
Several values in a cell are separate wells, animals, samples, runs or records. Numbers after ± are the reported error.

SMILES | test | system | conditions | quantity | value
CC(C)NCCCC[C@@H]1NC(=O)[C@H](Cc2ccc(O)cc2)NC(=O)[C@H](Cc2ccccc2)NC(=O)CC[C@H](C(=O)N[C@@H](CCCCNC(C)C)C(=O)N[C@@H](CCCCNC(=O)[C@H](CCC(=O)O)NC(=O)[C@H](CCC(=O)O)NC(=O)[C@H](CCC(=O)O)NC(=O)CN2CCN(CC(=O)O)CCN(CC(=O)O)CCN(CC(=O)O)CC2)C(N)=O)NC(=O)CNC(=O)[C@H](Cc2ccc3ccccc3c2)NC(=O)[C@@H](CCCNC(=N)N)NC1=O [gallium-68 labelled] | ex vivo biodistribution | male mice, PC-3 xenograft, testes | intravenous, 1 h post-injection | tissue uptake | 0.19 %ID/g
CSc1cc(C)nc(SC)c1NC(=O)CN1CCN(CCSc2nc3ccccc3[nH]2)CC1.Cl |  | female Crl:CD1 (ICR) mice, olfactory bulb | intranasal, 10 µL solution daily, 120 min, 7 days dosing | tissue concentration | 1.5 ng/g and 3.9 ng/g
N=C(N)NCCC[C@H](NCC(=O)[C@@H](O)[C@H](O)[C@H](O)CO)C(=O)O | UPLC-MS/MS | C57BL/6J mice, hippocampus | intraperitoneal, dose not given, 15 min | tissue concentration | 4 ± 2 pmol/mg tissue
O=C[C@H]([18F])[C@@H](O)[C@H](O)[C@H](O)CO |  | Kunming mice, turpentine inflammation, blood | intravenous, 0.74 MBq, 60 min | tissue uptake | 1.02 ± 0.15 %ID/g
COCCCOc1cc2c(cc1OC)-c1cc(=O)c(C(=O)O)cn1[C@H](C(C)C)C2 |  | CD-1 mice, sciatic nerve | oral, 10 mg/kg | tissue concentration | > 500 ng/g and < 1000 ng/g
C[C@H](NC(=O)[C@H](CCC(N)=O)NC(=O)[C@H](C)NC(=O)[C@H](CCCNC(=N)N)NC(=O)[C@H](CCC(N)=O)NC(=O)[C@H](C)NC(=O)[C@H](CCCNC(=N)N)NC(=O)[C@H](CCC(N)=O)NC(=O)[C@H](C)NC(=O)[C@H](CCC(N)=O)NC(=O)[C@H](CCCNC(=N)N)NC(=O)[C@H](C)NC(=O)[C@H](CCC(N)=O)NC(=O)[C@H](CCCNC(=N)N)NC(=O)[C@H](C)NC(=O)[C@H](CCC(N)=O)NC(=O)[C@H](C)NC(=O)[C@H](CCCNC(=N)N)NC(=O)[C@H](CCC(N)=O)NC(=O)[C@H](C)NC(=O)[C@H](CCCNC(=N)N)NC(=O)[C@H](CO)NC(=O)[C@H](Cc1ccc(O)c(I)c1)NC(=O)CNC(=O)CNC(=O)CN)C(=O)N[C@@H](CCCNC(=N)N)C(=O)N[C@@H](CCC(N)=O)C(=O)N[C@@H](C)C(=O)N[C@@H](CCCNC(=N)N)C(=O)N[C@@H](CCC(N)=O)C(=O)O [iodine-125 labelled] |  | H2/IL-6 transgenic BALB/c mice, both sexes, liver | intravenous, 4 h | tissue uptake | 8 %ID/g
OCc1nc2ccc(NCc3ccc(C(F)(F)F)cc3)cc2[nH]1 |  | Balb/c mice, male, heart | intravenous, 1 mg/kg, 48 h | tissue concentration | not detected
NC/C(=C\F)COc1cccc(Cn2c(=S)[nH]c(=O)c3[nH]cnc32)c1 |  | C57BL/6J mice, plasma | oral, 15 mg/kg single, 2 h | tissue concentration | 159 ng/mL
CC(C)C[C@H](NC(=O)[C@@H]1COCCCCCC(=O)N2C[C@H](F)C[C@H]2C(=O)N1)C(=O)[C@@]1(C)CO1 |  | BALB/c mice, lung | intravenous bolus, 40 mg/kg, 2 h | tissue concentration | not detected

For quick reference, copied from above:
SMILES | test | system | conditions | quantity | value
CSc1cc(C)nc(SC)c1NC(=O)CN1CCN(CCSc2nc3ccccc3[nH]2)CC1.Cl |  | female Crl:CD1 (ICR) mice, olfactory bulb | intranasal, 10 µL solution daily, 120 min, 7 days dosing | tissue concentration | 1.5 ng/g and 3.9 ng/g
